Assay results collected from several papers.
Each numbered part is a random draw from the data of one study; scales do not carry over between parts. “And” joins repeats or separate records; there may be more than shown.
Chain of UniProt Q9UM73 (whole entry, unmodified, looked up): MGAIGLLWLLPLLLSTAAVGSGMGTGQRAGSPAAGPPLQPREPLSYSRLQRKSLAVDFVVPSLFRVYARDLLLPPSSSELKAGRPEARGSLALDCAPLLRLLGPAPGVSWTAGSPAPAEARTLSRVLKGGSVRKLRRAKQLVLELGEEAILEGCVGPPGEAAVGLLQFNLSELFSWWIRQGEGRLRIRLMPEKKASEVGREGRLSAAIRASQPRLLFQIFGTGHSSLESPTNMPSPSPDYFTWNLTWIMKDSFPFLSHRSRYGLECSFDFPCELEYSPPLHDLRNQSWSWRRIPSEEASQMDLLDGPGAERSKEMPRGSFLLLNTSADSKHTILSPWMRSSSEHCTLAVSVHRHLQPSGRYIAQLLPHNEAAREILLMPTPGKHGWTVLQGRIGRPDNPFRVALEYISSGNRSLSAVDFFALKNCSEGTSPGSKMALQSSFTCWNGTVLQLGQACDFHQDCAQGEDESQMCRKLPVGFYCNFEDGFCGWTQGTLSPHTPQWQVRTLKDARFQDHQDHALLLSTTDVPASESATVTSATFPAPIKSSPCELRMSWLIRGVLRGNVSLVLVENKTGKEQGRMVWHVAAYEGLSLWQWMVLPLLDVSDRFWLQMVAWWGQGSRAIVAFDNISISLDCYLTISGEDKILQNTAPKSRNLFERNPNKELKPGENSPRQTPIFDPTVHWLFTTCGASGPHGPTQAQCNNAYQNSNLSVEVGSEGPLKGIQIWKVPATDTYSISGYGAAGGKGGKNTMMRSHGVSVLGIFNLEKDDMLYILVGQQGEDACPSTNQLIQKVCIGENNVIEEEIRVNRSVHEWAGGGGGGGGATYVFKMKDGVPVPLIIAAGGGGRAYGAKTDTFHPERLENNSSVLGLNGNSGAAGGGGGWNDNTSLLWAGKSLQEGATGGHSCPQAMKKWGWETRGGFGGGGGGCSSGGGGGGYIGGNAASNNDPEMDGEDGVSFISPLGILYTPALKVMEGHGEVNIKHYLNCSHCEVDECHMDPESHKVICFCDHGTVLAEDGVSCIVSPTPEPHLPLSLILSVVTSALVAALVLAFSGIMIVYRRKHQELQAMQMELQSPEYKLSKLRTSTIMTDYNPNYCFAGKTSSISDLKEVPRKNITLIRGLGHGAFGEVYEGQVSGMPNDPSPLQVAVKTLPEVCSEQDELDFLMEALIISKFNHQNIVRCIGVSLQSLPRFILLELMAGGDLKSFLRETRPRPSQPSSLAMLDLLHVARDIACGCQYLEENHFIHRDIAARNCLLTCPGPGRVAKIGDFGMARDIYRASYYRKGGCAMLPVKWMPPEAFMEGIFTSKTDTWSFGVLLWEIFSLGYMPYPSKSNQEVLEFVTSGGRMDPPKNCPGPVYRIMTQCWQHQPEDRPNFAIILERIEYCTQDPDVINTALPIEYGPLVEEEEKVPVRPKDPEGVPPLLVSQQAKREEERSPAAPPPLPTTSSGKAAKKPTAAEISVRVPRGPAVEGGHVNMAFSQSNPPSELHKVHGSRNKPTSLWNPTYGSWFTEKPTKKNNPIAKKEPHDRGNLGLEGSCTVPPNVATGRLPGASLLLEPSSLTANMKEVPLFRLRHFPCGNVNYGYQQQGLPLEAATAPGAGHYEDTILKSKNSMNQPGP
Chain of UniProt P53350 (whole entry, looked up): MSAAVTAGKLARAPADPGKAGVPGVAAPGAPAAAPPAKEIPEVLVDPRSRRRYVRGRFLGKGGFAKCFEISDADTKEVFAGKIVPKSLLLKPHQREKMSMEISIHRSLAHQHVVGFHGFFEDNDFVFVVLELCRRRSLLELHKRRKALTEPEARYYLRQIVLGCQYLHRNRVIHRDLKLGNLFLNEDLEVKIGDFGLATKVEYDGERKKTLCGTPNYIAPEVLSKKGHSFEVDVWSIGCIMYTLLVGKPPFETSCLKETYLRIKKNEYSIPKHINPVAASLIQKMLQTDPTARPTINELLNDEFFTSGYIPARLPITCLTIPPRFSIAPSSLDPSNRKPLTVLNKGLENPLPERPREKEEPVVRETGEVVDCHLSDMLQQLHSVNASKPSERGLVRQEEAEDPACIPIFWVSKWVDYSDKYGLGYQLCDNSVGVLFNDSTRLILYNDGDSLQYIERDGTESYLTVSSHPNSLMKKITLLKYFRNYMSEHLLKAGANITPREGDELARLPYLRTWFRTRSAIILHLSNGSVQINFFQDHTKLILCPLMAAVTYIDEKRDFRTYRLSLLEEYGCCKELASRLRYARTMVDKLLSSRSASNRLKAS
Chain of UniProt Q99755 (whole entry, looked up): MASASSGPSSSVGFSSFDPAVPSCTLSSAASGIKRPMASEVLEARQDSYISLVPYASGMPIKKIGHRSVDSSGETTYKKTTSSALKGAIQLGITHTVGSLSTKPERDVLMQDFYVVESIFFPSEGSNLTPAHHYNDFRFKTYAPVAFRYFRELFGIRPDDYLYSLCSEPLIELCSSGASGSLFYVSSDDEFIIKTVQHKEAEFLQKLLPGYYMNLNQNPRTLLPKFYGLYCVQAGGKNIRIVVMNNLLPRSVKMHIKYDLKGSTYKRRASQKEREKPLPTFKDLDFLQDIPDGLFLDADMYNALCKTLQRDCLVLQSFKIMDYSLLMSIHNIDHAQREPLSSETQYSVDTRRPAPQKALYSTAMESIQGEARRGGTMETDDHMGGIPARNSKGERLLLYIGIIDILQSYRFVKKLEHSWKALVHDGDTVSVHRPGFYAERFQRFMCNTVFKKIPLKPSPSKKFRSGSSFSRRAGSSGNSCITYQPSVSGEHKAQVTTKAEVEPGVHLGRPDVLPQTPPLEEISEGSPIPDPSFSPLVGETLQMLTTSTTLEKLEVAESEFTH

Study 1
SMILES: C[C@@H]1CN(c2ccc(-c3cc(C(=O)NCCOCCOCCOCCOCCOCCOCCNC(=O)/C=C/c4[nH]cc(C(=O)N[C@@H](CC(N)=O)c5ccc(F)c(Cl)c5)c4-c4ccc(Cl)cc4F)ccc3F)cc2NC(=O)c2ccc(F)cc2C(F)(F)F)C[C@H](C)N1C
Effect on: thermal unfolding
Method: differential scanning fluorimetry
Tested at: 5.5 µM
Reading: higher = more unfolded
Quantity: SYPRO Orange fluorescence
WDR5: WD repeat-containing protein 5 (WDR5, Homo sapiens, UniProt P61964)
DCAF1: DDB1- and CUL4-associated factor 1 (DCAF1, Homo sapiens, UniProt Q9Y4B6)
Chain of UniProt Q9Y4B6 (whole entry, looked up): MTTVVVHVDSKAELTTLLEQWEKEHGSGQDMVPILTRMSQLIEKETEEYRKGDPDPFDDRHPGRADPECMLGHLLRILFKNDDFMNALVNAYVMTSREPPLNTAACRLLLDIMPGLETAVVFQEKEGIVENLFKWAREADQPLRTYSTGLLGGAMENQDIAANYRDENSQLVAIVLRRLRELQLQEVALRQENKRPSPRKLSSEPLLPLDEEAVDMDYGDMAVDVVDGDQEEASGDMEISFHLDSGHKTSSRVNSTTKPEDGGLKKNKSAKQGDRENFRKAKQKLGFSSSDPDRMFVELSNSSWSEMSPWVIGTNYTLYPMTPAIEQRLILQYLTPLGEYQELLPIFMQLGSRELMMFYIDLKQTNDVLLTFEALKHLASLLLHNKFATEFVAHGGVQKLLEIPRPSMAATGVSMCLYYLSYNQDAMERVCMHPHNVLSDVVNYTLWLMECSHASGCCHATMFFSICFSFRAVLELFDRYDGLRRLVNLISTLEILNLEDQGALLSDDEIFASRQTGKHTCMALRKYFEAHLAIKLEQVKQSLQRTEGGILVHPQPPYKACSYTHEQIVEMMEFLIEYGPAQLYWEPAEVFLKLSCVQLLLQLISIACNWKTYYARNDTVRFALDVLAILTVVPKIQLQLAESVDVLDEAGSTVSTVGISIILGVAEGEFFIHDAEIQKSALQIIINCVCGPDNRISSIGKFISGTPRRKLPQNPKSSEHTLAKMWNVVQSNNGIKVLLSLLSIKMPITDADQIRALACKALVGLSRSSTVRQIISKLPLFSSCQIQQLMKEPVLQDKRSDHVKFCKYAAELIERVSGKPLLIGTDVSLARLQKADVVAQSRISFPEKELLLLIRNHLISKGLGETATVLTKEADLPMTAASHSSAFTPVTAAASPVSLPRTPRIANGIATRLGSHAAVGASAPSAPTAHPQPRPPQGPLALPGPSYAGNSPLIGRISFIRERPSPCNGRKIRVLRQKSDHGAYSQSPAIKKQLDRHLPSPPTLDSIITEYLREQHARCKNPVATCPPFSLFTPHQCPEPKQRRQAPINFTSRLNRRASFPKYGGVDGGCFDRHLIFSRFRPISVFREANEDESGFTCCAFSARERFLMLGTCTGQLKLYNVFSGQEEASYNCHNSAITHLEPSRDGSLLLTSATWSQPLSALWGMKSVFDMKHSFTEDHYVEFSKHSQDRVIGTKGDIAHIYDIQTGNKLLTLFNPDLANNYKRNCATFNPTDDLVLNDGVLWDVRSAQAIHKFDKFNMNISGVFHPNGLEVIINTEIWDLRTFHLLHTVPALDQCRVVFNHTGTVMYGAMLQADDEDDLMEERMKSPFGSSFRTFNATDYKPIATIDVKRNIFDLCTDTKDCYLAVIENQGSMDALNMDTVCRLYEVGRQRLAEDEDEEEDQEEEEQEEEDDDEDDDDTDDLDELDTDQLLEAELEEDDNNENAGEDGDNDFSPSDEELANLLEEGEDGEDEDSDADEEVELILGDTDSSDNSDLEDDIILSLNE
WDR5; 79.61 °C: 64100 a.u.
DCAF1; 76.21 °C: 42800 a.u.
WDR5; 61.41 °C: 15100 a.u.
DCAF1; 58.81 °C: 42300 a.u.
WDR5; 66.41 °C: 18100 a.u.
DCAF1; 75.21 °C: 43600 a.u.
DCAF1; 69.41 °C: 48900 a.u.
DCAF1; 89.21 °C: 33000 a.u.
DCAF1; 33.8 °C: 9480 a.u.
WDR5; 86.01 °C: 60700 a.u.
DCAF1; 78.61 °C: 40900 a.u.

Study 2
Structure (SMILES): Cc1ncsc1-c1ccc(C(CO)NC(=O)C2CC(O)CN2C(=O)C(NC(=O)c2ccc(COc3c(-c4c(C)c(F)cc5[nH]ncc45)c(C4CC4)cc4c(N5CC6CC5CN6)nc(OC5CCOCC5)nc34)cc2)C(C)C)cc1 (centres unmarked)
Method: SPR, single-cycle
Quantity: koff
KRAS/VHL, GDP-bound (Homo sapiens, UniProt P01116+P40337, G12D); immobilized KRAS G12D; ternary, geometric mean, with: VCB complex: 0.0118 s⁻¹
von Hippel-Lindau disease tumor suppressor, with Elongin B/C (VHL, Homo sapiens, UniProt P40337); immobilized VCB complex; binary, geometric mean: 0.0157 s⁻¹
GTPase KRas, GDP-bound (KRAS, Homo sapiens, UniProt P01116, G12D); immobilized KRAS G12D; binary, geometric mean: 0.00794 s⁻¹

Study 3
Structure (SMILES): COc1cc(-c2nc3ccc(C(=O)NCCCN4CCN(c5cccc(C)c5C)CC4)cc3n2C2CCC2)cc(OC)c1OC
Quantity: remaining binding
PLK1 (Homo sapiens, UniProt P53350); binding, competition with immobilised ligand; 1 µM: 97%
TNIK (Homo sapiens, UniProt Q9UKE5); binding, competition with immobilised ligand; 1 µM: 100%
ALK (Homo sapiens, UniProt Q9UM73, C1156Y); binding, competition with immobilised ligand; 1 µM: 90%
HIPK2 (Homo sapiens, UniProt Q9H2X6); binding, competition with immobilised ligand; 1 µM: 100%
HIPK3 (Homo sapiens, UniProt Q9H422); binding, competition with immobilised ligand; 1 µM: 75%
BMX (Homo sapiens, UniProt P51813); binding, competition with immobilised ligand; 1 µM: 100%
EIF2AK1 (Homo sapiens, UniProt Q9BQI3); binding, competition with immobilised ligand; 1 µM: 96%
SBK3 (Homo sapiens, UniProt P0C264); binding, competition with immobilised ligand; 1 µM: 95%
MYLK4 (Homo sapiens, UniProt Q86YV6); binding, competition with immobilised ligand; 1 µM: 100%
GRK4 (Homo sapiens, UniProt P32298); binding, competition with immobilised ligand; 1 µM: 88%
AKT3 (Homo sapiens, UniProt Q9Y243); binding, competition with immobilised ligand; 1 µM: 100%
TTK (Homo sapiens, UniProt P33981); binding, competition with immobilised ligand; 1 µM: 98%
ALK (Homo sapiens, UniProt Q9UM73); binding, competition with immobilised ligand; 1 µM: 73%
PIP5K1A (Homo sapiens, UniProt Q99755); binding, competition with immobilised ligand; 1 µM: 88%
STK26 (Homo sapiens, UniProt Q9P289); binding, competition with immobilised ligand; 1 µM: 89%
FLT3 ITD F691L human; KINOMEscan; 1000 nM; relative to: DMSO control: 100%
EGFR (Homo sapiens, UniProt P00533, del752-759); binding, competition with immobilised ligand; 1 µM: 80%
CDK13 (Homo sapiens, UniProt Q14004); binding, competition with immobilised ligand; 1 µM: 87%

Study 4
Target: Sodium-dependent neutral amino acid transporter B(0)AT1 (SLC6A19, Homo sapiens, UniProt Q695T7)
Chain of UniProt Q695T7 (whole entry, looked up): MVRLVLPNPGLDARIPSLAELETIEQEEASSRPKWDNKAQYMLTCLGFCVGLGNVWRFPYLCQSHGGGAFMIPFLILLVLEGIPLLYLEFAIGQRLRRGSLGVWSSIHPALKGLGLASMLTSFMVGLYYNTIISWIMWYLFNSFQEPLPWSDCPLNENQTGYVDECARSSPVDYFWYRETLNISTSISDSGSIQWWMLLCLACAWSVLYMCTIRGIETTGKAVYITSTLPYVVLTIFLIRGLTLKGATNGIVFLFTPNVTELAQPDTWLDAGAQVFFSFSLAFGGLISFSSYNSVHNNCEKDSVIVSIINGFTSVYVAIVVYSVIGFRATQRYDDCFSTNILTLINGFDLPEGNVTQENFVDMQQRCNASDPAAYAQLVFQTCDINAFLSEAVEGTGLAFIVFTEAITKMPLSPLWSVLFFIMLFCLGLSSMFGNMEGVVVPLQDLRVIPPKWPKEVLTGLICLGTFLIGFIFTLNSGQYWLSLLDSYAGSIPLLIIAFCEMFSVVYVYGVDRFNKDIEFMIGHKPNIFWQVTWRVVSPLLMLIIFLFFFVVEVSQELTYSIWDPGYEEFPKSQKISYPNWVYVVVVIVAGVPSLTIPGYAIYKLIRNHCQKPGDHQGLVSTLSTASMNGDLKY
Method: FLIPR membrane potential
Cell line: CHO-BC
Tested at: 30 µM
Setting: unit not given
Relative to: uninhibited
Quantity: remaining activity
Cc1cc(OCC(=O)NC(C)C)ccc1Cl: 0.101 and 0.147 and 0.0989 and 0.377 and 0.124
Cc1cc(OCC(=O)OC(C)C)cc(C)c1Cl: 1.11 and 1.2 and 1.02 and 0.935 and 0.928
Cc1cc(NCC(=O)NC(C)C)cc(C)c1Cl: 0.0598 and 0.0245 and 0.075 and 0.0704 and 0.0825
Cc1cc(Cl)ccc1OCC(=O)NC(C)C: 0.952 and 0.78 and 0.909 and 0.889 and 0.996
CON(C)C(=O)COc1cc(C)c(Cl)c(C)c1: 0.89 and 0.949 and 1.03 and 1.24 and 1.08
CCCCNC(=O)COc1cc(C)c(Cl)c(C)c1: 1.03 and 0.991 and 0.976 and 1.07
